Results gathered from unrelated publications.
Compare with care: the assays were run in different laboratories. ± marks the error that the study gave.
Histone acetyltransferase RTT109 with Vps75: Histone acetyltransferase RTT109, with Vps75 (Saccharomyces cerevisiae, UniProt Q07794)
Sequence of UniProt Q07794 (whole entry, looked up): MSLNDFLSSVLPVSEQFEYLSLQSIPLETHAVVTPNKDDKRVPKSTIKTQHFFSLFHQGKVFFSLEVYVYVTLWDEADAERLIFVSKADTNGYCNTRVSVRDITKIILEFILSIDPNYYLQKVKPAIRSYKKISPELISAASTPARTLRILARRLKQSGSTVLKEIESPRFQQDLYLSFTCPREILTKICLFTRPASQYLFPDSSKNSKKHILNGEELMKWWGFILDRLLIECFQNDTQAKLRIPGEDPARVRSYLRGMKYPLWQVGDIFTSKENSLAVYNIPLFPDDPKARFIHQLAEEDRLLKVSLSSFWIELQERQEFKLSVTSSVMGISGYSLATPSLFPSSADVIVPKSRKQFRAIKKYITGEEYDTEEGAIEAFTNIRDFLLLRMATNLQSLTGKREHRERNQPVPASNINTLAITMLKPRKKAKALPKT
PIK3CA: Phosphatidylinositol 4,5-bisphosphate 3-kinase catalytic subunit alpha isoform (PIK3CA, Homo sapiens, UniProt P42336)
Sequence of UniProt P42336 (whole entry, looked up): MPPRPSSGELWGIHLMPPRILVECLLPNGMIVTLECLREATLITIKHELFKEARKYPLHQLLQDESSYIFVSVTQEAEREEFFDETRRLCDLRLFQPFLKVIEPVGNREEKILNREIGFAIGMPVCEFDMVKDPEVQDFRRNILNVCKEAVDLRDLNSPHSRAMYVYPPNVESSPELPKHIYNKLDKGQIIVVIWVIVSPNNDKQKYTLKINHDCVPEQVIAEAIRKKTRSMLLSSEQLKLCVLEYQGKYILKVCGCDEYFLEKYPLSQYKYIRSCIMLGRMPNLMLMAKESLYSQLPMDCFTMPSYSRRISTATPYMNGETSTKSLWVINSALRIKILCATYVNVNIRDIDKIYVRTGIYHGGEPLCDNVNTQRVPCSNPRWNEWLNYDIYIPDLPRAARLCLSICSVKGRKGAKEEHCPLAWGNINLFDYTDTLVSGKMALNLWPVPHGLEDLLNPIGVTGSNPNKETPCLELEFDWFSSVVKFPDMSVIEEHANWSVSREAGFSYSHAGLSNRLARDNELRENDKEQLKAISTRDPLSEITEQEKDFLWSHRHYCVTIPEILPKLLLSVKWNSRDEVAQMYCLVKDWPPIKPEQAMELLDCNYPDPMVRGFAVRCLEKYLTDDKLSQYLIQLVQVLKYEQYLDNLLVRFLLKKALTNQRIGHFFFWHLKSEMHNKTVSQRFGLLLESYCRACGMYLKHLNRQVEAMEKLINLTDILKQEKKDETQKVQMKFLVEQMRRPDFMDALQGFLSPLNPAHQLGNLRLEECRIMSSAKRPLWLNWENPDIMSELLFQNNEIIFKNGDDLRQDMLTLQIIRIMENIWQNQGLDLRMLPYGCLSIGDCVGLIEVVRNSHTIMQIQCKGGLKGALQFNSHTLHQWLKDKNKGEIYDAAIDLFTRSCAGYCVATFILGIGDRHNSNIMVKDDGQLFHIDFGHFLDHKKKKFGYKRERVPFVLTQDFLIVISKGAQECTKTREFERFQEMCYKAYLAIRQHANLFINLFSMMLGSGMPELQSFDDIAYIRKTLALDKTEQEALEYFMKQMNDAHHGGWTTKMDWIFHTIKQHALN
PLK1: Serine/threonine-protein kinase PLK1 (PLK1, Homo sapiens, UniProt P53350)
Sequence of UniProt P53350 (whole entry, looked up): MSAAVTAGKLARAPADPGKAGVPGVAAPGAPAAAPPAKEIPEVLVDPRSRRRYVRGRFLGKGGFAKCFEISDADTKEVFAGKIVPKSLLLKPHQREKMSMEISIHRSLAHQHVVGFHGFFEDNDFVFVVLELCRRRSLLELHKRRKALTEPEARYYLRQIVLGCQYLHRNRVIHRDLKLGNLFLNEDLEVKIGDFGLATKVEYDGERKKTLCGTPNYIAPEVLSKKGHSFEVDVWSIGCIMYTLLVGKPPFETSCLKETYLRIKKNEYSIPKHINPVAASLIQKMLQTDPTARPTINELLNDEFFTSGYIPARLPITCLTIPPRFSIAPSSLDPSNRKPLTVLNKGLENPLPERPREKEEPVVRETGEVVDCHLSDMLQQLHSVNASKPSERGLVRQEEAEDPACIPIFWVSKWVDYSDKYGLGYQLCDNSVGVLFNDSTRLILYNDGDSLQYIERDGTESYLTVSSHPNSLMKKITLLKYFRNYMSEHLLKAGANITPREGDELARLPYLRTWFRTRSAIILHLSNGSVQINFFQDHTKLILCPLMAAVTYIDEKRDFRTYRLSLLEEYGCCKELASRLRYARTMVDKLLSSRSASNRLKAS
UCHL1: Ubiquitin carboxyl-terminal hydrolase isozyme L1 (UCHL1, Homo sapiens, UniProt P09936)
Sequence of UniProt P62942 (whole entry, unmodified, looked up): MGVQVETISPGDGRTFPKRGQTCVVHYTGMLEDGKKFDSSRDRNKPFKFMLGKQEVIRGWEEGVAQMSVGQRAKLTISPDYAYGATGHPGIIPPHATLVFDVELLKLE
Sequence of UniProt P09936 (whole entry, looked up): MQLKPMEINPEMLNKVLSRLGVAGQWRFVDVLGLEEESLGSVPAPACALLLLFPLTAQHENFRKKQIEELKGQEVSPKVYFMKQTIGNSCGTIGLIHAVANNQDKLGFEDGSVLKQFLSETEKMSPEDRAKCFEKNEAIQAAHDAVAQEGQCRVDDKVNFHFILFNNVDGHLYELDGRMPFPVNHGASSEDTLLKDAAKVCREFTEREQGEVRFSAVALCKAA
Sequence of UniProt P18825 (whole entry, looked up): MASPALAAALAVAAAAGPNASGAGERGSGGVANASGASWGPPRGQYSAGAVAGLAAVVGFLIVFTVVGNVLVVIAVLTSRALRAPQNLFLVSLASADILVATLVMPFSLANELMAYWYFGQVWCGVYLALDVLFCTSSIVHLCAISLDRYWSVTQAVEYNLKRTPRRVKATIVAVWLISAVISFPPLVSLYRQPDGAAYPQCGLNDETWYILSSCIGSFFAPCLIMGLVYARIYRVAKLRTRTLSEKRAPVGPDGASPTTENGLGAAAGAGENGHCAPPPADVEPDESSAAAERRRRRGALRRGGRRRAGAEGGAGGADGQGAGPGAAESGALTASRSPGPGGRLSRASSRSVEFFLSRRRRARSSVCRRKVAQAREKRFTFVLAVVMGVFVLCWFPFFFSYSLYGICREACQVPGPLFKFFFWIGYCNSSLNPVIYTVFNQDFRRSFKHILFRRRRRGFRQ
Sequence of UniProt Q15910 (whole entry, looked up): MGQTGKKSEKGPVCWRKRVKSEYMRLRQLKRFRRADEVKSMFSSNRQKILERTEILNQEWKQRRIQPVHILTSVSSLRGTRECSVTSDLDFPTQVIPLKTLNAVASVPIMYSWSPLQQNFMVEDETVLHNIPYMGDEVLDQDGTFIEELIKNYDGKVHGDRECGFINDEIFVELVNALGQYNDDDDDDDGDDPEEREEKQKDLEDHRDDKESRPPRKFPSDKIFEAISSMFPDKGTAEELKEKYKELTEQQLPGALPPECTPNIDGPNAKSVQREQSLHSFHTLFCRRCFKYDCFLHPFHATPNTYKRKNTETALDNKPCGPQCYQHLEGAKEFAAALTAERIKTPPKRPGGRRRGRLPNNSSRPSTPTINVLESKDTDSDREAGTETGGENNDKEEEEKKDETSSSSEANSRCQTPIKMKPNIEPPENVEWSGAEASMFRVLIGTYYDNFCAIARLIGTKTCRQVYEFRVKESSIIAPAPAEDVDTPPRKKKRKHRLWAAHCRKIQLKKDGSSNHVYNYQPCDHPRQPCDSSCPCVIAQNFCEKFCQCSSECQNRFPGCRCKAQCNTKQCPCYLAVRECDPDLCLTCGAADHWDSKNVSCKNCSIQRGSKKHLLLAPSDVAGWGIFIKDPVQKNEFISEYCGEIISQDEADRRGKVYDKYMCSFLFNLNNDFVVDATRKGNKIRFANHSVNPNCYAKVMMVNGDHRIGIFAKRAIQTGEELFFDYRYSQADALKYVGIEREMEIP
Sequence of UniProt Q8BHY3 (whole entry, unmodified, looked up): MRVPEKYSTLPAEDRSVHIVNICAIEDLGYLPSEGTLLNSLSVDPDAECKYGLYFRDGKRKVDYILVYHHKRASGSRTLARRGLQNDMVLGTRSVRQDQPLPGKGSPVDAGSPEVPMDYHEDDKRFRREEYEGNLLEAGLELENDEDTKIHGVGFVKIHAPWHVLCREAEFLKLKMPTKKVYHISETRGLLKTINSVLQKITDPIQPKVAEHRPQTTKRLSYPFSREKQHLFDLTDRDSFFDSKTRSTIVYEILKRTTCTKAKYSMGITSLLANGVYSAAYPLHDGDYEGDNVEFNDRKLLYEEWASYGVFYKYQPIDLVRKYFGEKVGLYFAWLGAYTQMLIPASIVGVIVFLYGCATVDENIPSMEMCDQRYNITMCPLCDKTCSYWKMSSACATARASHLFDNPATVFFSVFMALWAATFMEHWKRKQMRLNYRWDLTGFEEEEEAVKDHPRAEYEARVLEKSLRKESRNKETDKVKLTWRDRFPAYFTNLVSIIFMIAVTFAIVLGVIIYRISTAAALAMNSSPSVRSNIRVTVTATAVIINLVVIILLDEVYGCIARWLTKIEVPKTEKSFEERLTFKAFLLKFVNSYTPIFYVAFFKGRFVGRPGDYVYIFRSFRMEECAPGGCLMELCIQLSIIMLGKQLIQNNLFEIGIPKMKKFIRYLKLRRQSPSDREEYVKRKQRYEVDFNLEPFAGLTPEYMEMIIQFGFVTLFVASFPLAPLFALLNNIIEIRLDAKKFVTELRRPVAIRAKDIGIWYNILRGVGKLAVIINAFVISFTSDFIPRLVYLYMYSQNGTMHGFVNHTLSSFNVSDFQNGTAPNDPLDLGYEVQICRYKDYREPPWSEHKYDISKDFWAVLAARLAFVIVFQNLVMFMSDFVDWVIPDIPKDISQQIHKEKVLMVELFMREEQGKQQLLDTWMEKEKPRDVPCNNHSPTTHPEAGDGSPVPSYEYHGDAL
Sequence of UniProt Q8TDX7 (whole entry, looked up): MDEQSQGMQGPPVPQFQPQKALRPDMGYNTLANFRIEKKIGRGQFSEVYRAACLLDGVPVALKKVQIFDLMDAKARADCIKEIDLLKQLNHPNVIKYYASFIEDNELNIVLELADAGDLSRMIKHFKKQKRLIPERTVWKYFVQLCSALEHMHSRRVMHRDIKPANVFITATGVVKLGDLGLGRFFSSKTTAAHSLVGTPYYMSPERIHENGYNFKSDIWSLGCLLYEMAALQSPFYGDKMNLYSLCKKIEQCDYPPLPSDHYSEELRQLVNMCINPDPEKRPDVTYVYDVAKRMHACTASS

Nc1ccn([C@@H]2O[C@H](COP(=O)(O)OP(=O)(O)O)[C@@H](O)[C@H]2O)c(=O)n1
Kd (RNASE1 (Bos taurus, UniProt P61823); surface sampling native MS; charge state 6+): 4.1 ± 0.5 µM

Cc1nn(C(C)C)c(C)c1CN1CCCC(CCC(=O)NCc2ccccc2F)C1 (stereo not shown)
inhibition (Trypanosoma cruzi; reporter translation, Renilla luciferase mRNA translation; cell-free extract; 40 µM; reference: DMSO): 6.6%

COc1ccc(Nc2nnc(S)s2)cc1
IC50 (Histone acetyltransferase RTT109 with Vps75; enzyme activity, inhibitor, HTS, CPM-based, dose response): 64 ± 9 µM

C/C=C/C(=O)CCCCCC(=O)N1CCN(c2nc(-c3cnc(N)nc3C(F)F)nc(N3CCOCC3)n2)CC1
Ki (PIK3CA): 12 nM

CCCCCCCCSc1ccc(C(=O)Nc2ccc(C)cc2C(=O)O)cc1
DC50 (PLK1; degrader, western blot; PC-3; 23 h): 13 ± 1.7 µM

O=C(Nc1ccc([N+](=O)[O-])cc1Cl)c1cc(Cl)ccc1O
EC50 (Anoctamin-1 (Ano1, Mus musculus, UniProt Q8BHY3, R864A); chloride current, whole-cell patch clamp; HEK-293T TMEM16F knockout): 13.2 ± 2.46 µM

CN(C)CCNc1ccc(-c2nn(C)c(=O)c3ccccc23)cc1[N+](=O)[O-]
inhibition (Trypanosoma cruzi; reporter translation, Renilla luciferase mRNA translation; cell-free extract; 40 µM; reference: DMSO): 7.6%

CC[C@@H]1[C@H](F)C(=O)N[C@@H]1COc1nccc2cc(C(N)=O)c(OC)cc12
IC50 (PLK1; ATP-site probe binding, ActivX profiling; THP-1 cell lysate; Lys2 site): > 5 µM

CC[C@H](C(=O)N1CCCC[C@H]1C(=O)O[C@H](CCc1ccc(OC)c(OC)c1)c1ccccc1OCC(=O)NCCCCCCC(=O)N[C@H](C(=O)N1C[C@H](O)C[C@H]1C(=O)N[C@@H](C)c1ccc(-c2scnc2C)cc1)C(C)(C)C)c1cc(OC)c(OC)c(OC)c1
DC50 (FKBP1A (Homo sapiens, UniProt P62942, F37V); luminescence; HEK293T stably expressing target; 6 h): ~0.1 µM

O=Cc1cc([N+](=O)[O-])c(Cl)cc1Cl
labelling (UCHL1; covalent, intact protein LC-MS; 12.5 µM): 7.95%

Cc1ccc(-c2n/c(=N\C(=O)c3ccc([N+](=O)[O-])cc3)sn2Cc2ccccc2)cc1
IC50 (Histone acetyltransferase RTT109 with Vps75; enzyme activity, inhibitor, HTS, CPM-based, dose response): > 125 µM

Cc1ccc(C(=O)Nc2ccc(S(=O)(=O)O)c3cc(S(=O)(=O)O)cc(S(=O)(=O)O)c23)cc1NC(=O)c1cccc(NC(=O)Nc2cccc(C(=O)Nc3cc(C(=O)Nc4ccc(S(=O)(=O)O)c5cc(S(=O)(=O)O)cc(S(=O)(=O)O)c45)ccc3C)c2)c1
Ki (Uncharacterized protein (Trypanosoma brucei, UniProt Q38AT7)): 6000 nM

O=S1(=O)C=C(N2CCC3(CC2)OCCO3)c2ccccc21
IC50 (Histone acetyltransferase RTT109 with Vps75; enzyme activity, inhibitor, HTS, CPM-based, dose response): > 125 µM

C=CC(=O)N(C)CCCCC(=O)N1CCN(c2nc(-c3cnc(N)nc3C(F)F)nc(N3CCOCC3)n2)CC1
Ki (PIK3CA): 6.26 nM

CNC(=O)[C@@]12C[C@@H]1[C@@H](n1cnc3c(NC)nc(C#Cc4cnccn4)nc31)[C@H](O)[C@@H]2O
Ki (ADRA2C (Homo sapiens, UniProt P18825); radioligand binding (PDSP)): 1000 to 10000 nM

O=C(CCl)NC(Cn1cncn1)c1ccccc1 (stereo not shown)
labelling (UCHL1; covalent, intact protein LC-MS; 12.5 µM): 13.3%

N[C@@H]1C[C@]1(F)c1ccc(C(F)(F)F)cc1 (relative stereo)
Ki (tyramine oxidase (Arthrobacter sp.); enzyme activity, competitive inhibitor, Lineweaver-Burk plot): 1300 ± 300 nM

C[C@@H]1O[C@H](CNS(=O)(=O)c2ccc(CCN=[N+]=[N-])s2)[C@@H](O)[C@H](O)[C@@H]1O
Ki (fucose-binding lectin LecB (Pseudomonas aeruginosa, UniProt A0A0H2ZE85)): 360 ± 40 nM

NCc1cc2c(cc1F)C(=O)N(C1CCC(=O)NC1=O)C2 (stereo not shown)
DC50 (NEK7/CRBN (Homo sapiens, UniProt Q8TDX7+Q96SW2); degrader, Western blot; Hep3B; 24 h): 0.009 µM

Nc1ncnc2c1ncn2[C@@H]1O[C@H](COP(=O)(O)OP(=O)(O)OP(=O)(O)O)[C@@H](O)[C@H]1O
EC50 (P2X purinoceptor 1 (P2RX1, Homo sapiens, UniProt P51575, A137L/K136E/K138D/K140L/R139M); ion current, agonist, two-electrode voltage clamp; 5): 9.06 µM

C#CCCCCC(F)=C1O[C@H](CO)[C@@H](O)[C@H](O)[C@H]1O
Ki (uncharacterized protein (Saccharopolyspora erythraea, UniProt A4F7P9); inhibitor; pH 7.6, 20 °C, together with: p-nitrophenyl-β-D-glucopyranoside): 148000 ± 16000 nM

O=C1CC(N(CCc2ccccc2)C(=S)Nc2ccccc2)C(=O)N1c1ccc(Br)cc1 (stereo not shown)
IC50 (Histone acetyltransferase RTT109 with Vps75; enzyme activity, inhibitor, HTS, CPM-based, dose response): > 125 µM

COc1cc(C)[nH]c(=O)c1CN1CCc2c(Cl)cc([C@H](OC)C3COC3)c(Cl)c2C1=O
Ki (EZH2 (Homo sapiens, UniProt Q15910); inhibitor, TR-FRET; PRC2 with activator peptide): 0.019 nM

O=S1(=O)CC(S(=O)(=O)Nc2ccc(Cl)c(Cl)c2)c2ccccc21 (stereo not shown)
IC50 (Histone acetyltransferase RTT109 with Vps75; enzyme activity, inhibitor, HTS, CPM-based, dose response): > 125 µM

CC[C@H](C)[C@H](NC(=O)[C@H](Cc1ccc(OP(=O)(O)O)cc1)NC(=O)[C@H](CC(N)=O)NC(=O)[C@H](CC(C)C)NC(=O)[C@@H](N)CO)C(=O)N[C@@H](CC(=O)O)C(=O)N[C@@H](CC(C)C)C(=O)N[C@@H](CC(=O)O)C(=O)N[C@@H](CC(C)C)C(=O)N[C@H](C(=O)N[C@@H](CCCCN)C(=O)O)C(C)C
EC50 (PTPN11 (Homo sapiens, UniProt Q06124, S502P); enzyme activity, activator; pH 7.0, 2% DMSO, together with: DiFMUP 100 µM, phosphopeptide): 0.12 ± 0.02 µM

O=S(=O)(NCc1ccccc1)c1ccc(Br)c2nsnc12
IC50 (Histone acetyltransferase RTT109 with Vps75; enzyme activity, inhibitor, HTS, CPM-based, dose response): > 125 µM

Cc1ccc(C2(F)CC2N)cc1 (stereo not shown)
Ki (tyramine oxidase (Arthrobacter sp.); enzyme activity, competitive inhibitor, Lineweaver-Burk plot): 160 ± 10 nM

Cc1c(Cl)cccc1NC(=O)N1CCCN(c2nc(-c3ccccc3)ns2)CC1
IC50 (Histone acetyltransferase RTT109 with Vps75; enzyme activity, inhibitor, HTS, CPM-based, dose response): > 125 µM

COc1cc(Nc2ncc3c(n2)-c2ccc(Cl)cc2C(c2c(F)cccc2OC)=NC3)ccc1C(=O)NCCOCCOCCNC(=O)COc1cccc2c1C(=O)N(C1CCC(=O)NC1=O)C2=O (stereo not shown)
EC50 (PTK2 (Homo sapiens, UniProt Q05397); binding, kinobead competition; MV4-11 cell lysate): > 30 µM

Cc1cc(C)nc(Sc2ccc3nsnc3c2[N+](=O)[O-])n1
IC50 (Histone acetyltransferase RTT109 with Vps75; enzyme activity, inhibitor, HTS, CPM-based, dose response): > 125 µM

CCC(C)(C)C(=O)C(=O)N1CCC[C@H]1C(=O)OCCCc1cccnc1
Ki (FKBP1A (Homo sapiens, UniProt P62942); enzyme activity, inhibitor, PPIase; 10 °C): 3100 nM

Excerpt of the above:
CN(C)CCNc1ccc(-c2nn(C)c(=O)c3ccccc23)cc1[N+](=O)[O-]
inhibition (Trypanosoma cruzi; reporter translation, Renilla luciferase mRNA translation; cell-free extract; 40 µM; reference: DMSO): 7.6%

CC[C@@H]1[C@H](F)C(=O)N[C@@H]1COc1nccc2cc(C(N)=O)c(OC)cc12
IC50 (PLK1; ATP-site probe binding, ActivX profiling; THP-1 cell lysate; Lys2 site): > 5 µM

CC[C@H](C(=O)N1CCCC[C@H]1C(=O)O[C@H](CCc1ccc(OC)c(OC)c1)c1ccccc1OCC(=O)NCCCCCCC(=O)N[C@H](C(=O)N1C[C@H](O)C[C@H]1C(=O)N[C@@H](C)c1ccc(-c2scnc2C)cc1)C(C)(C)C)c1cc(OC)c(OC)c(OC)c1
DC50 (FKBP1A (Homo sapiens, UniProt P62942, F37V); luminescence; HEK293T stably expressing target; 6 h): ~0.1 µM
